# Experimental data from different studies.
# Compare with care: the assays were run in different laboratories. Numbers after ± are the reported error.
# Organism: Mycobacterium tuberculosis
Structure (SMILES),assay,system,setting,scale,endpoint,value
Cc1nc(=O)c2cc(CN(C)c3cccc(C(=O)N[C@@]4(C(=O)O)CCC[C@H](C(=O)O)C4)c3)ccc2[nH]1,microbial growth,H37RV,,,MIC90,34.8 µM
CC1C(=NOCc2cn(-c3ccccc3)nn2)C(C)C(c2ccc(Br)cc2)OC1c1ccc(Br)cc1 (stereo not shown),resazurin,H37Rv,6500 µg/mL,,inhibition,89%
C#CCN(Cc1ccc2[nH]c(N)nc(=O)c2c1)c1ccc(C(=O)N[C@@H](CCC(=O)O)C(=O)O)cc1,,pptT knockdown without ATc,,,MIC90,37.4 µM
Cc1ccn2c(-c3csc(Nc4ccccn4)n3)c(C)nc2c1,"ATP level, BacTiter-Glo luminescence",H37Rv,"2 days, hypoxic shift-down",,IC50,7.4 µM
NC(=O)c1cnccn1,MABA,H37Rv ATCC 27294,,,MIC,3.12 µg/mL
Cc1cc(C)c2cc(C(=O)NC3CCCCCC3)[nH]c2c1,microbial killing,H37RV,,,MBC,0.0313 µg/mL
CN(C)c1ccc(-c2nc3ccccc3n2CCCOc2ccccc2)cc1,"ATP level, BacTiter-Glo luminescence",H37Rv,"2 days, hypoxic shift-down",,IC50,9.3 µM
Cc1nc(=O)c2cc(CN(C)c3cccc(C(=O)Nc4n[nH]c5ccccc45)c3)ccc2[nH]1,microbial growth,H37RV,,,MIC50,32.2 µM
CN[C@@H]1[C@H](O)[C@H](NC)[C@H]2O[C@]3(O)[C@H](O[C@@H]2[C@H]1O)O[C@H](C)C[C@H]3NC(=O)Cc1cc(Cl)ccn1,,MDR and XDR isolates,,,MIC50,1.6 µg/mL
O/C(=C\C(=S)S)c1ccccc1,,H37Rv ATCC 27294,,reference: IC50 Vero cells over MIC100,selectivity index,3.45
Cc1ccc(N(CCc2nnc(S)o2)S(=O)(=O)c2ccccc2)cc1,BACTEC radiometric,H37Rv,12.5 µg/mL,,inhibition,34%
Cc1[nH]c(=O)c(CNC(=O)c2cccc(C(F)(F)F)c2)c2c1CCCC2,"microbial growth, resazurin",H37RV,25 µg/mL,,inhibition,45.1%
C#CCN(Cc1ccc2[nH]c(C)nc(=O)c2c1)c1ccc(C(=O)N[C@@H](CCC(=O)O)C(=O)O)cc1,microbial growth,H37RV,,,MIC90,> 100 µM
Cc1cc(Oc2nc(N3CC[C@@H](c4ccncc4)C3)ncc2F)[nH]n1,,"THP-1 macrophages, H37Rv bioluminescent, non-replicating",,reference: D4 over D4+1,IC50 ratio,45
Cc1[nH]c(=O)c(CNC(=O)c2ccc(OC(F)(F)F)cc2)c2c1CCCC2,"microbial growth, resazurin",H37RV,25 µg/mL,,inhibition,64.2%
Cc1nc(=O)c2cc(CN(C)c3ccc(C(=O)Nc4n[nH]c5ccccc45)s3)ccc2[nH]1,,pptT knockdown with ATc,,,MIC50,50.5 µM
Cc1[nH]c(=O)c(CNC(=O)c2ccc(C(F)(F)F)cc2)c2c1CCCC2,"microbial growth, resazurin",H37RV,25 µg/mL,,inhibition,99.3%
C=C1CC(COc2ccc3c(C)cc(=O)oc3c2)(c2ccccc2)OC1=O (stereo not shown),microbial growth,H37RV,551.9 µM,,inhibition,83%
CC1=NN(CNc2ccc(C(=O)O)c(O)c2)C(=O)/C1=N/Nn1c(-c2ccccc2)nc2ccccc2c1=O,,H37Rv,,reference: IC50 NIH 3T3 over MIC,selectivity index,0.86
O=C1c2ccccc2C(=O)N1c1nnc(-c2ccc(Cl)cc2)s1,bacterial growth,H37Rv,,,IC50,> 200 µM
Cc1[nH]c(=O)c(CNC(=O)c2ccc(C(F)(F)F)cn2)c2c1CCCC2,"microbial growth, resazurin",H37RV,20 µg/mL,,inhibition,22.3%
Cc1sc(-n2c(C)c3c(C)nnc(C)c3c2C)nc1-c1ccc(Br)cc1,microbial growth,H37RV,,,MIC90,11.5 µM
O=C(Cc1cccs1)N[C@@H]1C(=O)N2C(C(=O)O)=C(CSc3cccc[n+]3[O-])CS[C@H]12,,H37Rv,non-replicating,,MBC,3.1 µM
Cc1ccc(S(=O)(=O)N(CCc2nnc(S)o2)c2ccccc2)cc1,BACTEC radiometric,H37Rv,12.5 µg/mL,,inhibition,73%
Cc1cc(S(=O)(=O)N(C)CC(=O)Nc2ccn(C)c(=O)c2)c2[nH]ncc2c1,,intrabacterial,"10 µM, 24 h",reference: untreated,pyruvate level,37.3 ± 0.05 fold
CC1C(=NOCc2cc(-c3ccc(Cl)cc3)no2)C(C)C(c2ccc(Cl)cc2)OC1c1ccc(Cl)cc1 (stereo not shown),resazurin,H37Rv,6500 µg/mL,,inhibition,95%
Nc1c2c(nc3sc4c(c13)CCCCC4)CCCC2,"ATP level, BacTiter-Glo luminescence",H37Rv,"2 days, hypoxic shift-down",,IC50,3.4 µM
COc1ccc(NC(=O)CN(C)S(=O)(=O)c2cc(C)cnc2N)cn1,microbial growth,H37RV,10 days,,MIC90,> 100 µM
CC(=O)c1sc(N/N=C/c2c(-c3ccc(Cl)cc3)nc3ncccn23)nc1C,MABA,H37Rv ATCC 27294,,,MIC,12.5 µg/mL
Cc1cc(S(=O)(=O)N(C)CC(=O)Nc2ccc(N3CCOCC3)c(Cl)c2)c2[nH]ncc2c1,,intrabacterial,"10 µM, 24 h",reference: untreated,pyruvate level,25.6 ± 0.03 fold
Cc1ccc(S(=O)(=O)N(CCc2nnc(S)o2)c2ccc(Cl)cc2)cc1,BACTEC radiometric,H37Rv,12.5 µg/mL,,inhibition,45%
CCOC(=O)/C=C1/SC(N/N=C/c2c(-c3ccc(OC)cc3)nc3ncccn23)=NC1=O,MABA,H37Rv ATCC 27294,,,MIC,50 µg/mL
CC1C(=NNC(=O)c2ccncc2)C(C)C(c2ccc(Br)cc2)OC1c1ccc(Br)cc1 (stereo not shown),resazurin,H37Rv,6500 µg/mL,,inhibition,95%
CN[C@@H]1[C@H](O)[C@H](NC)[C@H]2O[C@]3(O)[C@H](O[C@@H]2[C@H]1O)O[C@H](C)C[C@H]3NC(=O)Cc1ccccn1,,MDR and XDR isolates,,,MIC50,2.3 µg/mL
